Assay results gathered from unrelated publications.
Compare with care: the assays were run in different laboratories. Numbers after ± are the reported error.
T1: SNCA 5' UTR IRE RNA, 2-aminopurine at bulged A (Homo sapiens); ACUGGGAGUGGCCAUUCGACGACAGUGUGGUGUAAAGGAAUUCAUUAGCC

| Structure (SMILES) | target | assay | test system | conditions | scale | measurement | result |
| --- | --- | --- | --- | --- | --- | --- | --- |
| Fc1cc2scnc2cc1Nc1ncnc2sc(C3=CCCNC3)cc12 | Receptor-interacting serine/threonine-protein kinase 1 (RIPK1, Homo sapiens, UniProt Q13546) | kinase activity |  | 1 µM | reference: control | remaining activity | 95 ± 1% |
| CSCC[C@H](NC(=O)[C@H](Cc1c[nH]c2ccccc12)NC(=O)[C@@H](NC(=O)[C@@H](NC(=O)[C@@H](NC(=O)[C@H](C)NC(=O)[C@@H](NC(=O)[C@H](C)NC(=O)[C@H](CCCCN)NC(=O)[C@H](CCCCN)NC(=O)[C@@H](NC(=O)[C@H](CC(N)=O)NC(=O)[C@H](CCC(=O)O)NC(=O)[C@@H](N)CCSC)C(C)C)[C@@H](C)O)[C@@H](C)O)[C@@H](C)O)[C@@H](C)O)C(=O)N[C@H](C(=O)N1CCC[C@H]1C(=O)N[C@H](C(=O)N[C@@H](CCCNC(=N)N)C(=O)N[C@@H](CCC(N)=O)C(=O)O)[C@@H](C)O)C(C)C | Recombining binding protein suppressor of hairless (Rbpj, Mus musculus, UniProt P31266) | isothermal titration calorimetry |  | 25 °C | reference: wild-type peptide | ΔΔG° | 0.4 kcal/mol |
| Cc1ccc(NC(=O)CCC(NC(=O)CCC(C)C2CCC3C4C(O)CC5CC(O)CCC5(C)C4CCC23C)C(=O)O)c(C)n1 (stereo not drawn) | Ileal sodium/bile acid cotransporter (SLC10A2, Homo sapiens, UniProt Q12908) | transport, substrate | ASBT-MDCK cells | unit not given | reference: taurocholate Jmax | Jmax | 0.511 |
| CC(Cc1ccc(Cl)cc1)=C(c1ccc(Cl)cc1)c1ccc(OCCCN(C)C)cc1 | Estrogen receptor (ESR1, Homo sapiens, UniProt P03372) | reporter gene, agonist, yeast estrogen screen |  | 1 µM | reference: DMSO | fold activation | 1.14 ± 0.01 fold |
| N=C(N)NCCC[C@H](NC(=O)[C@H](Cc1ccccc1)NC(=O)[C@@H](N)CO)C(=O)N[C@@H](CC(N)=O)C(N)=O | Neuropeptide S receptor (Mus musculus, UniProt Q8BZP8) | cAMP accumulation, agonist | HEK293T | mouse receptor, unit not given | reference: maximal assay window | maximal response | 0.87 |
| CCNC(=O)C1OC(n2cnc3c(NCC(c4ccccc4)c4ccccc4)nc(NCCNC(=O)Nc4cc[n+](C)cc4)nc32)C(O)C1O (stereo not drawn) | Adenosine receptor A2a (ADORA2A, Homo sapiens, UniProt P29274) | agonist, HTRF | CHO cells expressing ADORA2A | concentration not given, after washout |  | duration of cAMP response | ≥ 5 h |
| C=C1C(=O)O[C@@H]2[C@H]3C(CO)=CC(=O)C3=C(C)C[C@H](OC(=O)Cc3ccc(O)cc3)[C@@H]12 | Alpha-glucosidase MAL12 (MAL12, Saccharomyces cerevisiae S288c, UniProt P53341) | fluorescence quenching |  | 310 K |  | binding free energy | -5.5 kcal/mol |
| O=C(O[C@H](CO)C(F)(F)F)N1C[C@@H]2[C@H](C1)[C@H]2c1ccn(-c2ccc([18F])nc2)n1 | Monoglyceride lipase (Rattus norvegicus, UniProt Q8R431) | PET | Sprague-Dawley rats, whole brain | dose not given, together with: PF-06795071 3 mg/kg iv | reference: baseline | reduction of brain uptake AUC | 45% |
| CC(=O)N(Cc1ccccc1)[C@@H](C)C(=O)N(C)[C@@H](C)C(=O)N(Cc1c[nH]c2cc(Cl)ccc12)[C@@H](C)C(=O)N(C)[C@@H](C)C(=O)N(CCC(C)(C)C)[C@@H](C)C(=O)N1CCNCC1 | E3 ubiquitin-protein ligase Mdm2, N-terminal domain 17-125 (MDM2, Homo sapiens, UniProt Q00987) | binding, SPR | PBS with Tween | 10 °C, immobilised peptoid |  | koff | 0.065 s⁻¹ |
| O=C(CSc1nnc(-c2ccncc2)n1-c1ccc(Br)cc1)Nc1ccc2cn[nH]c2c1 | T1, SNCA 5' UTR IRE RNA, 2-aminopurine at bulged A (Homo sapiens) | fluorescence titration |  | apparent |  | EC50 | 2.9 µM |
| O=C1c2ccc(O)cc2OC2c3cc(-c4coc5cc(O)ccc5c4=O)ccc3OC12c1ccc(O)cc1 (stereo not drawn) | PRXC1A (Armoracia rusticana, UniProt P00433) | oxidation, substrate |  |  |  | Km | 775 ± 21 µM |
| CCCCCC(C)NCC(=O)O (stereo not drawn) | Albumin (ALB, Homo sapiens, UniProt P02768) | circular dichroism |  | 0.12 mM |  | random coil content | 33.1% |
| CCN(CC)C(=O)c1ccc(O)c(OC)c1 | Heat shock protein HSP 90-alpha, N-terminal domain (HSP90AA1, Homo sapiens, UniProt P07900) | binding, ligand-observed NMR titration |  | ligand to protein ratio 56 |  | bound ligand fraction | 0.74 mol % |
| O=C(/C=C/c1ccc2c(c1)OCCO2)c1ccc(Cl)s1 | Amine oxidase [flavin-containing] B (MAOB, Homo sapiens, UniProt P27338) | enzyme activity, inhibitor, Amplex Red, benzylamine substrate |  |  | reference: chalcone over compound | potency ratio | 118 fold |
| CCCCCCOc1ccc(C(=O)OCC[N+]2(C)CC=CCC2)cc1 (stereo not drawn) | Muscarinic acetylcholine receptor M1 (CHRM1, Homo sapiens, UniProt P11229) |  |  | together with: [3H]-NMS | reference: xanomeline over cpd | dissociation half-time ratio | ~6 |
| Nc1ncnc2c1ncn2C1OC(COP(=O)(O)OP(=O)(O)OCC2OC(O)C(O)C2O)C(O)C1O (stereo not drawn) | TRPM2 (Nematostella vectensis, UniProt A7T1N0) | channel current, activator, inside-out patch clamp |  | global fit with epsilon analogue, unit not given | reference: 100 µM compound | maximal current | 1 |
| O=P(O)(O)O[C@@H]1[C@@H](O)[C@H](O)[C@H](O)[C@H](O)[C@H]1OP(=O)(O)O | Inositol 1,4,5-trisphosphate-gated calcium channel ITPR1, IP3-binding core (Itpr1, Rattus norvegicus, UniProt P29994, R568Q) | binding, 3H-IP3 competition |  | IP3-binding core IBC^R568Q |  | Hill coefficient | 1.1 ± 0.3 |
| Cc1cc(=O)oc2cc(NC(=O)CCCCCCCC(=O)NO)ccc12 | Histone deacetylase 8 (HDAC8, Homo sapiens, UniProt Q9BY41) | ITC | Tris-HCl buffer | pH 7.5, 25 °C |  | TΔS | 4.1 ± 0.1 kcal/mol |
| CCNC(=O)[C@H]1O[C@@H](n2cnc3c(NCCCCCCCCNC(=O)CCCCCNC(=O)COc4ccc(/C=C/C5=[N+]6C(=Cc7ccc(-c8cccs8)n7[B-]6(F)F)C=C5)cc4)ncnc32)[C@H](O)[C@@H]1O | Adenosine receptor A1 (ADORA1, Homo sapiens, UniProt P30542) | CRE reporter gene | CHO-A1 | Gi response, together with: forskolin |  | log Kd minus log IC50 | 1.28 |
| CC(=O)N[C@H](Cc1ccccc1)C(=O)N[C@@H](C(=O)N[C@H](C)C(=O)N[C@H](COP(=O)(O)O)C(N)=O)[C@H](C)O | Breast cancer type 1 susceptibility protein, tandem BRCT domains (BRCA1, Homo sapiens, UniProt P38398) | binding, fluorescence polarization |  | concentration not given |  | activity | inactive |
| CNCC=C(C)C=CC=CC=CC1=C(C)CCCC1(C)C | Rhodopsin (RHO, Homo sapiens, UniProt P08100, T289P) | pharmacological chaperone, immunostaining, nonpermeabilized cells | 661W | 2.5 µM, 16 h | reference: untreated cells | cell surface expression | ~4 fold |
| CC(C)[C@H](NC(=O)[C@@H]1CCCN1C(=O)[C@H](CCCCN)NC(=O)[C@H](Cc1ccccc1)NC(=O)[C@H](Cc1ccccc1)NC(=O)[C@H](CC(=O)O)NC(=O)[C@H](CCC(=O)O)NC(=O)[C@H](Cc1ccc(O)cc1)NC(=O)[C@H](CC(=O)O)NC(=O)[C@H](CCC(=O)O)NC(=O)[C@H](CC(=O)O)NC(=O)[C@H](CCC(=O)O)NC(=O)[C@@H](N)Cc1ccc(O)cc1)C(=O)N[C@H](C(=O)N[C@@H](CSSC[C@H](NC(=O)[C@@H](NC(=O)[C@@H](NC(=O)[C@@H]1CCCN1C(=O)[C@H](CCCCN)NC(=O)[C@H](Cc1ccccc1)NC(=O)[C@H](Cc1ccccc1)NC(=O)[C@H](CC(=O)O)NC(=O)[C@H](CCC(=O)O)NC(=O)[C@H](Cc1ccc(O)cc1)NC(=O)[C@H](CC(=O)O)NC(=O)[C@H](CCC(=O)O)NC(=O)[C@H](CC(=O)O)NC(=O)[C@H](CCC(=O)O)NC(=O)[C@@H](N)Cc1ccc(O)cc1)C(C)C)[C@@H](C)O)C(=O)N[C@@H](Cc1ccc(O)cc1)C(=O)N[C@@H](Cc1ccccc1)C(N)=O)C(=O)N[C@@H](Cc1ccc(O)cc1)C(=O)N[C@@H](Cc1ccccc1)C(N)=O)[C@@H](C)O | C-C motif chemokine 8 (CCL8, Homo sapiens, UniProt P80075) | isothermal titration calorimetry |  | concentration not given |  | binding enthalpy ΔH | -6.72 ± 0.379 kcal/mol |
| CCC(=C(c1ccc(O)cc1)c1ccc(OCCN(C)CCOCCOCCOCCOCCN(C)CCOc2ccc(C(=C(CC)c3ccccc3)c3ccc(O)cc3)cc2)cc1)c1ccccc1 (mixture of isomers) | Estrogen receptor beta (ESR2, Homo sapiens, UniProt Q92731) | radioligand competition binding |  | concentration not given, Z-Z/Z isomer form, together with: [3H]estradiol tracer | reference: estradiol | relative binding affinity | 12.2 ± 2.1% |
| O=C(c1ccc(-c2cnn3c2CN(C(=O)C(F)F)[C@H](Cc2ccccc2)C3)cc1)N1CCCc2ccccc21 | PRKN/UBB (Homo sapiens, UniProt O60260+P0CG47) | not specified |  | concentration not given |  | activity | inactive |

Repeated from above:
| Structure (SMILES) | target | assay | test system | conditions | scale | measurement | result |
| --- | --- | --- | --- | --- | --- | --- | --- |
| Cc1cc(=O)oc2cc(NC(=O)CCCCCCCC(=O)NO)ccc12 | Histone deacetylase 8 (HDAC8, Homo sapiens, UniProt Q9BY41) | ITC | Tris-HCl buffer | pH 7.5, 25 °C |  | TΔS | 4.1 ± 0.1 kcal/mol |
| CC(=O)N(Cc1ccccc1)[C@@H](C)C(=O)N(C)[C@@H](C)C(=O)N(Cc1c[nH]c2cc(Cl)ccc12)[C@@H](C)C(=O)N(C)[C@@H](C)C(=O)N(CCC(C)(C)C)[C@@H](C)C(=O)N1CCNCC1 | E3 ubiquitin-protein ligase Mdm2, N-terminal domain 17-125 (MDM2, Homo sapiens, UniProt Q00987) | binding, SPR | PBS with Tween | 10 °C, immobilised peptoid |  | koff | 0.065 s⁻¹ |
| O=C(O[C@H](CO)C(F)(F)F)N1C[C@@H]2[C@H](C1)[C@H]2c1ccn(-c2ccc([18F])nc2)n1 | Monoglyceride lipase (Rattus norvegicus, UniProt Q8R431) | PET | Sprague-Dawley rats, whole brain | dose not given, together with: PF-06795071 3 mg/kg iv | reference: baseline | reduction of brain uptake AUC | 45% |
| CC(=O)N[C@H](Cc1ccccc1)C(=O)N[C@@H](C(=O)N[C@H](C)C(=O)N[C@H](COP(=O)(O)O)C(N)=O)[C@H](C)O | Breast cancer type 1 susceptibility protein, tandem BRCT domains (BRCA1, Homo sapiens, UniProt P38398) | binding, fluorescence polarization |  | concentration not given |  | activity | inactive |
